Assay results collected from several papers.
A part holds a random share of what one study measured. “And” joins repeats or separate records; there may be more than shown.

Set 1 — cell line: mouse MPNST tumor cells; technique: high-content immunofluorescence imaging; refers to: nuclear SOX9; tested at: 10 µM; time: 12 h; notes: mean of 2 replicates; relative to: DMSO control; direction: higher = more nuclear SOX9
| SMILES | nuclear SOX9 intensity |
| --- | --- |
| CC(=O)Oc1ccccc1C(=O)O | 91.3 % of DMSO and 88.4 % of DMSO |
| Nc1nonc1C(=Nc1ccc(F)c(Cl)c1)NO | 103 % of DMSO |
| C=C1c2c(Cl)ccc(O)c2C(O)=C2C(=O)[C@]3(O)C(O)=C(C(N)=O)C(=O)[C@@H](N(C)C)[C@@H]3[C@@H](O)[C@H]12.O=C(O)c1cc(S(=O)(=O)O)ccc1O | 106 % of DMSO |
| O=C(Nc1ccccc1)N[C@@H]1C[C@@H](C(=O)O)Nc2cc(Cl)cc(Cl)c21 | 90.6 % of DMSO |
| CCOC(=O)CSc1nc2c(sc3ccccc32)c(=O)n1CCCN1CCCC1 | 156 % of DMSO |
| COC(c1ccccc1)(c1ccccc1)[C@H](Oc1nc(C)cc(C)n1)C(=O)O | 115 % of DMSO and 101 % of DMSO |
| CS(=O)(=O)c1cccc(CNc2nc(Nc3ccc4c(c3)CCC(=O)N4)ncc2C(F)(F)F)c1 | 69.6 % of DMSO |
| O=[N+]([O-])c1cc2nc(O)c(O)nc2cc1[N+](=O)[O-] | 85.7 % of DMSO |
| COc1cc(Nc2ccnc3ccc(Br)cc23)cc(OC)c1OC | 288 % of DMSO |
| Cc1ccc(Sc2cncc3sc(C(N)=O)cc23)cc1 | 151 % of DMSO |
| Cc1cc([C@@H](C)Nc2ccccc2C(=O)O)c2nc(N3CCOCC3)cc(=O)n2c1 | 84.1 % of DMSO |
| CN1CCN(CC(=O)N2c3ccccc3C(=O)Nc3cccnc32)CC1 | 101 % of DMSO |

Set 2 — Compound: NC(N)=NC(=O)c1nc(Cl)c(N2CCCCCC2)nc1N; effect on: β-arrestin recruitment; mode: agonist; technique: PRESTO-Tango; tested at: 10 µM; relative to: untreated
| target | fold over basal |
| --- | --- |
| TAAR1 (Homo sapiens, UniProt Q96RJ0) | 0.6 fold |
| HTR1A (Homo sapiens, UniProt P08908) | 1.45 |
| BDKRB1 (Homo sapiens, UniProt P46663) | 1.17 |
| PTH1R (Homo sapiens, UniProt Q03431) | 0.49 |
| GPR3 (Homo sapiens, UniProt P46089) | 0.83 |
| SUCNR1 (Homo sapiens, UniProt Q9BXA5) | 1.21 fold |
| CXCR2 (Homo sapiens, UniProt P25025) | 1.15 |
| Mas-related G-protein coupled receptor member G (MRGPRG, Homo sapiens, UniProt Q86SM5) | 0.85 |
| Adhesion G protein-coupled receptor A3 (ADGRA3, Homo sapiens, UniProt Q8IWK6) | 1.05 |
| AGTR1 (Homo sapiens, UniProt P30556) | 0.88 |
| GPR35 (Homo sapiens, UniProt Q9HC97) | 0.72 |
| TACR3 (Homo sapiens, UniProt P29371) | 0.99 fold |

Set 3 — effect on: cell-free assay; technique: competition with immobilised ligand; tested at: 1 µM
SMILES: CN(C(=O)c1ccccc1)c1cc(N(C)c2ccc3c(c2)CCc2ccc(C(=O)NCCN4CCOCC4)cc2C3=O)ccc1F
| target | remaining binding [%] |
| --- | --- |
| EIF2AK1 (Homo sapiens, UniProt Q9BQI3) | 94 |
| COQ8A (Homo sapiens, UniProt Q8NI60) | 87 |
| MAPK8 (Homo sapiens, UniProt P45983) | 82 |
| PIP4K2C (Homo sapiens, UniProt Q8TBX8) | 62 |
| DCLK1 (Homo sapiens, UniProt O15075) | 96 |
| LRRK2 (Homo sapiens, UniProt Q5S007) | 80 |
| CSNK1G3 (Homo sapiens, UniProt Q9Y6M4) | 88 |
| TRPM6 (Homo sapiens, UniProt Q9BX84) | 75 |
| PIK3CA (Homo sapiens, UniProt P42336, M1043I) | 96 |
| SLK (Homo sapiens, UniProt Q9H2G2) | 98 |
| EPHA4 (Homo sapiens, UniProt P54764) | 92 |
| TGFBR1 (Homo sapiens, UniProt P36897) | 85 |
| CDKL2 (Homo sapiens, UniProt Q92772) | 93 |
| MAPK1 (Homo sapiens, UniProt P28482) | 92 |
| CAMK1G (Homo sapiens, UniProt Q96NX5) | 100 |
| FGR (Homo sapiens, UniProt P09769) | 93 |
| Ribosomal protein S6 kinase alpha-6, N-terminal kinase domain (RPS6KA6, Homo sapiens, UniProt Q9UK32) | 83 |
| IKBKB (Homo sapiens, UniProt O14920) | 82 |
| PIK3C2G (Homo sapiens, UniProt O75747) | 88 |
| CDK18 (Homo sapiens, UniProt Q07002) | 100 |
| MARK1 (Homo sapiens, UniProt Q9P0L2) | 81 |
| MYLK3 (Homo sapiens, UniProt Q32MK0) | 100 |
| FLT3 (Homo sapiens, UniProt P36888, F691L/ITD) | 98 |

Set 4 — effect on: enzyme activity; mode: inhibitor; tested at: 10 µM
Target: Calcium/calmodulin-dependent protein kinase type II subunit alpha (CAMK2A, Homo sapiens, UniProt Q9UQM7)
| Compound | inhibition [%] |
| --- | --- |
| COc1ccc(/C=C\c2cc(OC)c(OC)c(OC)c2)cc1OP(=O)(O)O | -28 |
| O=c1cc(-c2ccccc2)oc2cc(O[C@@H]3O[C@H](CO[C@@H]4O[C@H](CO)[C@@H](O)[C@H](O)[C@H]4O)[C@@H](O)[C@H](O)[C@H]3O)c(O)c(O)c12 | -7 |
| NCCCNCCCCNCCCN | 10 |
| CCOC(=O)C(C)(C)Oc1ccc(Cl)cc1 | -16 |
| C[C@@H]1O[C@@H](O[C@H]2[C@H](O[C@H]3CC[C@@]4(C)[C@@H](CC[C@]5(C)[C@@H]4CC=C4[C@@H]6CC(C)(C)CC[C@]6(C(=O)O)CC[C@]45C)[C@]3(C)CO)OC[C@H](O)[C@@H]2O)[C@H](O)[C@H](O)[C@H]1O | 12 |
| CN(C)CCCC1(c2ccc(F)cc2)OCc2cc(C#N)ccc21 (stereo not shown) | -2 |
| O=c1cc(-c2ccc(O)cc2)oc2cccc(O)c12 | -1 |
| O=C(O)/C=C/c1ccccc1O | -25 |

A few entries again (set 3):
| target | remaining binding [%] |
| --- | --- |
| EIF2AK1 (Homo sapiens, UniProt Q9BQI3) | 94 |
| COQ8A (Homo sapiens, UniProt Q8NI60) | 87 |
| MAPK8 (Homo sapiens, UniProt P45983) | 82 |
| PIP4K2C (Homo sapiens, UniProt Q8TBX8) | 62 |
| DCLK1 (Homo sapiens, UniProt O15075) | 96 |
| LRRK2 (Homo sapiens, UniProt Q5S007) | 80 |
| CSNK1G3 (Homo sapiens, UniProt Q9Y6M4) | 88 |
